Assay results of several laboratories.
Lines come from different studies, so protocols differ. ± marks the error that the study gave.

| Compound | assay | test system | conditions | how to read | endpoint | value |
| --- | --- | --- | --- | --- | --- | --- |
| O=C1NCCC12CCN(c1c(Cl)cncc1-c1ccc(N3CCOCC3)cc1)CC2 | gene-expression microarray | Tet-O-β-catenin intestinal organoids, mouse | 2 µM, 24 h |  | number of genes altered | 34 |
| Cc1ccc(C(=O)Nc2cccc(C(F)(F)F)c2)cc1Nc1nc(-c2cccnc2)nc2c1cnn2C | VEGF-induced vascularization | mouse, VEGF agar chamber implant | oral, 3 mg/kg daily, 4 days, together with: VEGF 2 µg |  | angiogenesis | inhibited |
| CCCC[C@H](NC(=O)[C@@H](NC(=O)[C@H](CC(=O)O)NC(=O)[C@H](CCC(N)=O)NC(=O)[C@H](CC(C)C)NC(=O)[C@H](CC(C)C)NC(=O)[C@H](CCCN)NC(=O)[C@H](CCCNC(=N)N)NC(=O)[C@H](C)NC(=O)[C@H](CO)NC(=O)[C@H](CC(C)C)NC(=O)[C@H](CCC(N)=O)NC(=O)[C@H](CC)NC(=O)[C@H](CC(C)C)NC(=O)[C@@H](NC(=O)[C@H](CCCN)NC(=O)[C@H](CCCNC(=N)N)NC(=O)[C@H](Cc1ccc(O)cc1)NC(=O)[C@H](CO)NC(=O)[C@H](CCC(N)=O)NC(=O)[C@@H](NC(=O)[C@H](Cc1ccccc1)NC(=O)[C@@H](NC(=O)[C@H](C)NC(=O)[C@H](CC(=O)O)NC(=O)[C@H](C)NC(=O)CCc1ccc(O)cc1)[C@@H](C)CC)[C@@H](C)O)C(C)C)[C@@H](C)CC)C(=O)N[C@@H](CC(=O)O)C(=O)N[C@@H](CCCNC(=N)N)C(=O)NCCCCC(N)=O | GH release, ELISA | male Sprague-Dawley rat, anaesthetised, serum | subcutaneous, 3 µg/kg, 15 min |  | serum GH level | 259 ± 31.1 ng/mL |
| CC[C@H](C)[C@H](NC(=O)[C@H](CC(N)=O)NC(=O)[C@H](CC(N)=O)NC(=O)[C@H](CCCNC(=N)N)NC(=O)[C@H](CC(N)=O)NC(=O)[C@H](CCCNC(=N)N)NC(=O)[C@H](CCCCN)NC(=O)[C@@H](NC(=O)[C@H](CC(N)=O)NC(=O)[C@H](CCSC)NC(=O)[C@H](CC(C)C)NC(=O)[C@H](Cc1c[nH]c2ccccc12)NC(=O)[C@H](CCC(N)=O)NC(=O)[C@@H](NC(=O)[C@H](Cc1ccccc1)NC(=O)[C@H](CC(=O)O)NC(=O)[C@H](CCC(N)=O)NC(=O)[C@H](C)NC(=O)[C@H](CCCNC(=N)N)NC(=O)[C@H](CCCNC(=N)N)NC(=O)[C@H](CO)NC(=O)[C@H](CC(=O)O)NC(=O)[C@H](CC(C)C)NC(=O)[C@H](Cc1ccc(O)cc1)NC(=O)[C@H](CCCCN)NC(=O)[C@H](CO)NC(=O)[C@H](Cc1ccc(O)cc1)NC(=O)[C@H](CC(=O)O)NC(=O)[C@H](CO)NC(=O)[C@@H](NC(=O)[C@H](Cc1ccccc1)NC(=O)[C@@H](NC(=O)CNC(=O)[C@H](CCC(=O)O)NC(=O)[C@@H](CO)NC(=O)[C@@H](N)Cc1c[nH]cn1)[C@@H](C)O)[C@@H](C)O)C(C)C)[C@@H](C)O)C(=O)N[C@@H](C)C(=O)N[C@@H](CSCC(=O)NCCOCCOCCOCCOCCC(=O)O[C@H]1CC[C@@]2(C)C(=CC[C@H]3[C@@H]4CC[C@H]([C@H](C)CCCC(C)C)[C@@]4(C)CC[C@@H]32)C1)C(N)=O |  | diet-induced obese mice, plasma | subcutaneous, 1.9 µmol/kg, 14 days, chronic dosing |  | leptin level | 19 ± 1 ng/mL |
| CCCOC(=O)Cc1c(C)n(C(=O)c2ccc(Cl)cc2)c2ccc(OC)cc12 | hot plate test | BALB/c mice | 50 mg/kg, 60 min |  | latency of nociceptive response | 15.7 ± 0.7 s |
| CC12CC(O)C3CC1(OC1OC(CO)C(O)C(O)C1O)C3(COC(=O)c1ccccc1)C(=O)O2 (stereo not shown) | tail suspension test | mice, reserpine model | 14 mg/kg, 7 days |  | immobility time | 101 ± 11.2 s |
| COc1ccc2c(c1)c(CC(=O)OCC(=O)OC(C)(C)C)c(C)n2C(=O)c1ccc(Cl)cc1 | acetic acid writhing test | BALB/c mouse | intraperitoneal, 20 mg/kg | relative to: negative control | analgesia | 66.3% |
| CCCC[C@H](NC(=O)[C@@H](NC(=O)[C@H](CC(=O)O)NC(=O)[C@H](CCC(N)=O)NC(=O)[C@H](CC(C)C)NC(=O)[C@H](CC(C)C)NC(=O)[C@H](CCCN)NC(=O)[C@H](CCCNC(=N)N)NC(=O)[C@H](C)NC(=O)[C@H](CO)NC(=O)[C@H](CC(C)C)NC(=O)[C@H](CCC(N)=O)NC(=O)[C@H](CC)NC(=O)[C@H](CC(C)C)NC(=O)[C@@H](NC(=O)[C@H](CCCN)NC(=O)[C@H](CCCNC(=N)N)NC(=O)[C@H](Cc1ccc(O)cc1)NC(=O)[C@H](CO)NC(=O)[C@H](CC(N)=O)NC(=O)[C@@H](NC(=O)[C@H](Cc1c(F)c(F)c(F)c(F)c1F)NC(=O)[C@@H](NC(=O)[C@H](C)NC(=O)[C@H](CC(=O)O)NC(=O)[C@@H](C)NC(=O)CCc1ccc(O)cc1)[C@@H](C)CC)[C@@H](C)O)C(C)C)[C@@H](C)CC)C(=O)N[C@@H](CO)C(=O)N[C@@H](CCCNC(=N)N)C(=O)NCCCC(N)=O | GH release, ELISA | male Sprague-Dawley rat, anaesthetised, serum | subcutaneous, 3 µg/kg, 30 min |  | serum GH level | 153 ± 33.3 ng/mL |
| COc1ccc2c(c1)c(CC(=O)OCC(=O)c1ccccc1)c(C)n2C(=O)c1ccc(Cl)cc1 | acetic acid writhing test | BALB/c mouse | intraperitoneal, 30 mg/kg | relative to: negative control | analgesia | 75.1% |
| COc1ccc(-c2oc3ccccc3c(=O)c2OCc2ccccc2)cc1 |  | diabetic rat | 7.5 mg/kg, 28 days, p-nitrophenyl β-glucoside induced |  | serum total cholesterol | 120 ± 4.89 mg/dL |
| O=[N][Fe]1([N]=O)[S](CCO)[Fe]([N]=O)([N]=O)[S]1CCO | western blot, item: NeuN | aged C57BL/6JNarl mice on Western diet, hippocampus | dose not given | relative to: Western diet alone | protein level | increased |
| COc1ccc(C2CC(c3ccc(C)cc3)=Nc3ccccc3S2)cc1 (stereo not shown) |  | rat, normal, overnight fasted | oral, 10 mg/kg, 90 min, oral glucose tolerance test, together with: glucose 3 g/kg oral |  | blood glucose | 116 ± 4.01 mg/dL |
| COc1cc2nc(N3CCN(C(=O)C4CC5(CC5)CO4)CC3)nc(N)c2cc1OC (stereo not shown) |  | male SHR rat | oral, 3 mg/kg, 15 min | relative to: terazosin | systolic blood pressure decrease | increased |
| O=c1c(OCc2ccccc2)c(-c2ccc([N+](=O)[O-])cc2)oc2ccccc12 |  | diabetic rat | 7.5 mg/kg, 28 days, p-nitrophenyl β-glucoside induced |  | serum HDL cholesterol | 41 ± 1.89 mg/dL |
| Cc1cc(Nc2cc3ncccc3c(N[C@@H]3C[C@H]4CC[C@@H](C3)N4CCC#N)n2)n[nH]1 | item: rectal bleeding | human, moderate to severe ulcerative colitis | 20 mg, day 28 |  | patients with improvement | 30% |
| COc1c2c(cc3oc(CO)cc(=O)c13)O[C@H](C(C)(C)O)C2 | analgesia | mouse | oral, 4 mg/kg, 2 h |  | hot plate latency | 15.5 ± 2.27 s |
| CCc1nc(-c2ccc(-c3ccc(CCC(N)(CO)CO)cc3)cc2)co1 |  | Sprague-Dawley rat, peripheral blood lymphocytes | oral, 0.3 mg/kg, single dose |  | maximal inhibition of PBLs | 25% |
| CC[C@H]1[C@@H](O)[C@@H]2[C@H](CC[C@]3(C)[C@@H]([C@H](C)CCOS(=O)(=O)[O-])CC[C@@H]23)[C@@]2(C)CC[C@@H](O)C[C@@H]12.[Na+] | histology | ob/ob NASH mouse model, liver | oral, 10 mg/kg once daily, before treatment, baseline of 8 week study, scale 0 to 2 | direction not given | ballooning score | 0.8 ± 0.1 |
| C[C@H](NC(=O)CNC(=O)[C@H](CCC(=O)O)NC(=O)[C@H](CCC(=O)O)NC(=O)[C@H](CC(=O)O)NC(=O)[C@@H]1CCCN1C(=O)[C@H](Cc1ccccc1)NC(=O)[C@H](CS)NC(=O)[C@H](Cc1ccc(O)cc1)NC(=O)CCCNC(=O)CNC(=O)CNC(=O)[C@@H](C)NC(=O)CN)C(=O)N[C@@H](CS)C(=O)N[C@@H](Cc1ccc(O)cc1)C(N)=O [technetium-99m labelled] | SPECT | BALB/c nude mouse, SKBR3 tumour | intravenous, 37 MBq, 240 min |  | tumour to non-tumour ratio | 3.49 |
| C[C@H](NC(=O)COC(=O)[C@H](C)NC(=O)CO)C(=O)O |  | water | pH 3, 50 °C |  | depolymerization rate constant | 0.013 h⁻¹ |
| CCCC[C@H](NC(=O)[C@@H](NC(=O)[C@H](CC(=O)O)NC(=O)[C@H](CCC(N)=O)NC(=O)[C@H](CC(C)C)NC(=O)[C@H](CC(C)C)NC(=O)[C@H](CCCN)NC(=O)[C@H](CCCNC(=N)N)NC(=O)[C@H](C)NC(=O)[C@H](CO)NC(=O)[C@H](CC(C)C)NC(=O)[C@H](CCC(N)=O)NC(=O)[C@H](CC)NC(=O)[C@H](CC(C)C)NC(=O)[C@@H](NC(=O)[C@H](CCCN)NC(=O)[C@H](CCCNC(=N)N)NC(=O)[C@H](Cc1ccc(O)cc1)NC(=O)[C@H](CO)NC(=O)[C@H](CCC(N)=O)NC(=O)[C@@H](NC(=O)[C@H](Cc1ccccc1)NC(=O)[C@@H](NC(=O)[C@H](C)NC(=O)[C@H](CC(=O)O)NC(=O)[C@H](C)NC(=O)CCc1ccc(O)cc1)[C@@H](C)CC)[C@@H](C)O)C(C)C)[C@@H](C)CC)C(=O)N[C@@H](CC(=O)O)C(=O)N[C@@H](CCCNC(=N)N)C(=O)NC | GH release, ELISA | male Sprague-Dawley rat, anaesthetised, serum | subcutaneous, 3 µg/kg, 15 min |  | serum GH level | 248 ± 40.5 ng/mL |
| COc1ccc(C(=O)CSc2nnc(COCCn3c([N+](=O)[O-])cnc3C)o2)cc1F |  |  | 50 µg/mL, 45 min |  | DPPH scavenging | 61.7 ± 0.31% |

Some of these lines once more:
| Compound | assay | test system | conditions | how to read | endpoint | value |
| --- | --- | --- | --- | --- | --- | --- |
| COc1ccc(-c2oc3ccccc3c(=O)c2OCc2ccccc2)cc1 |  | diabetic rat | 7.5 mg/kg, 28 days, p-nitrophenyl β-glucoside induced |  | serum total cholesterol | 120 ± 4.89 mg/dL |
| O=[N][Fe]1([N]=O)[S](CCO)[Fe]([N]=O)([N]=O)[S]1CCO | western blot, item: NeuN | aged C57BL/6JNarl mice on Western diet, hippocampus | dose not given | relative to: Western diet alone | protein level | increased |
